Assay results from different studies.
Values joined by “and” are separate records of one study, mostly repeats; a detail may differ. ± gives the spread as reported.
Oprm1: Mu-type opioid receptor (Oprm1, Rattus norvegicus, UniProt P33535)
ACHE: Acetylcholinesterase (ACHE, Homo sapiens, UniProt P22303)
Butyrylcholinesterase: Butyrylcholinesterase (Sus scrofa, UniProt A0A4X1VEU5)
Neuronal acetylcholine receptor; alpha3/beta2: Neuronal acetylcholine receptor; alpha3/beta2 (Rattus norvegicus, UniProt P04757+P12390)
OPRK1: Kappa-type opioid receptor (OPRK1, Homo sapiens, UniProt P41145)
inhA: Enoyl-[acyl-carrier-protein] reductase [NADH] (inhA, Mycobacterium tuberculosis, UniProt P9WGR1)
BCHE: Cholinesterase (BCHE, Homo sapiens, UniProt P06276)

By UniProt entry, the sequences of proteins in these tests, tags left out. Residues count along the entry.
UniProt P33535, whole entry: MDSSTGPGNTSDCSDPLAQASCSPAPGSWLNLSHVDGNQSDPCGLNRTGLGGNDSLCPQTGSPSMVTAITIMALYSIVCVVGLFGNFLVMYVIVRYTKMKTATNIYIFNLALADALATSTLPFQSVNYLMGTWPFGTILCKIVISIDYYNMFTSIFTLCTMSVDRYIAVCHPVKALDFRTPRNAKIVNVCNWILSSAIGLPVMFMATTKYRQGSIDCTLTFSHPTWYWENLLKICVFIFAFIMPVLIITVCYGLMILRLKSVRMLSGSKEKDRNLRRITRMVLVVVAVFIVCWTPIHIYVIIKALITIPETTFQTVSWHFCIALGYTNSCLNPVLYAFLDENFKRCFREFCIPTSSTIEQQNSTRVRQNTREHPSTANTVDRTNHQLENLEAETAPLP
UniProt P22303, whole entry, looked up: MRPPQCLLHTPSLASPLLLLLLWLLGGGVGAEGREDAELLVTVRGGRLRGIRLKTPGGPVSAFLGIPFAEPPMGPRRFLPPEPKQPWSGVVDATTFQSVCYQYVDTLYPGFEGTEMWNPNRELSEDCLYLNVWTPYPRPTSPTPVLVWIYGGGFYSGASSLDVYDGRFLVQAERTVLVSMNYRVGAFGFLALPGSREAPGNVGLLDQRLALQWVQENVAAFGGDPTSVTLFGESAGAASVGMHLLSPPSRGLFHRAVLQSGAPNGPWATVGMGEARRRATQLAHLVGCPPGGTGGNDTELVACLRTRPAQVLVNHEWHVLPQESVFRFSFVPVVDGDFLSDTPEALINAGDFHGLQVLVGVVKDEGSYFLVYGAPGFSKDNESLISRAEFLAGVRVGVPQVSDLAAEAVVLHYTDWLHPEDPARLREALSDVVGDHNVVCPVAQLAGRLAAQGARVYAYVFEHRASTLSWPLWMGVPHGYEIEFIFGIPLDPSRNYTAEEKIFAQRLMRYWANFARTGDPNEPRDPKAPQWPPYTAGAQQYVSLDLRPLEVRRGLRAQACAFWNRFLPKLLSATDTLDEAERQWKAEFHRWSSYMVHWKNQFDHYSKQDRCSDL
UniProt A0A4X1VEU5, 29-602 limits assumed: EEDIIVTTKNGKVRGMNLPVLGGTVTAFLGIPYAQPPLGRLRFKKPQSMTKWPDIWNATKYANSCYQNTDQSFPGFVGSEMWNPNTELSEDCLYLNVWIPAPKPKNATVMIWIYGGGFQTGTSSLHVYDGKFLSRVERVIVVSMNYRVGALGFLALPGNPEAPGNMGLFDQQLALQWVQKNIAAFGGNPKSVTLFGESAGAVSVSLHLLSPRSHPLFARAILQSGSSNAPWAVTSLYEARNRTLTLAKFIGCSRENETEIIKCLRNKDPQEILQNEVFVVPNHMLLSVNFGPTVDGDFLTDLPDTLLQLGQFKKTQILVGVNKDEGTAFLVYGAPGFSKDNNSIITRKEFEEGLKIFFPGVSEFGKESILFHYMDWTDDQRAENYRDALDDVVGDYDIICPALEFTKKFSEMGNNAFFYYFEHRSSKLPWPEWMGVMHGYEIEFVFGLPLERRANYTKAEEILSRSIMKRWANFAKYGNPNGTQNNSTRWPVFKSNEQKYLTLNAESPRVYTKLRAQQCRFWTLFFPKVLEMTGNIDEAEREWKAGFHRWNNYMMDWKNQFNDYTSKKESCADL
UniProt P12390, 25-500 limits assumed: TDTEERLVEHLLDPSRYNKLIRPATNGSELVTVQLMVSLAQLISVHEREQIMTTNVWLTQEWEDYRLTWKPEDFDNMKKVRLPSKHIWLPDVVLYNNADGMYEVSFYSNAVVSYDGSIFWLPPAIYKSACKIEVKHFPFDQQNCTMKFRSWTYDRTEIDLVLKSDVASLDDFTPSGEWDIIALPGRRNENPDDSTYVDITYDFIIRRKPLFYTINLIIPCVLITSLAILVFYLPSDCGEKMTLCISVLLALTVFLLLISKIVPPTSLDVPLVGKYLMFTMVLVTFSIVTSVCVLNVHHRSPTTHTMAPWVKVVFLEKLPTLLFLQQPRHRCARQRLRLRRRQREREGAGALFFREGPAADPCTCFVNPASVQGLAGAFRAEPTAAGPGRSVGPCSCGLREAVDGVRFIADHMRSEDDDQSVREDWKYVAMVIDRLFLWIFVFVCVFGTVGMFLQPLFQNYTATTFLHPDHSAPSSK
UniProt P41145, whole entry: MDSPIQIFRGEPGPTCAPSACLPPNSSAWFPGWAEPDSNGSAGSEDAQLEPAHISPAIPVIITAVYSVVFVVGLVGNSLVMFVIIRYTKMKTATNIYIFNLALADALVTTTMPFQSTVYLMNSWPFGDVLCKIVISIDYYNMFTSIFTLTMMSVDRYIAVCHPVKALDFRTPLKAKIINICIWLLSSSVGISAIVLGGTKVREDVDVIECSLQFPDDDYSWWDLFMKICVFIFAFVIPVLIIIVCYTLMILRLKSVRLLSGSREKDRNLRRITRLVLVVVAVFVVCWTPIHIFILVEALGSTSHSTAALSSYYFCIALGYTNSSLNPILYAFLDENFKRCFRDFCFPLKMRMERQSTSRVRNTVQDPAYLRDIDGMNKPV
UniProt P9WGR1, whole entry: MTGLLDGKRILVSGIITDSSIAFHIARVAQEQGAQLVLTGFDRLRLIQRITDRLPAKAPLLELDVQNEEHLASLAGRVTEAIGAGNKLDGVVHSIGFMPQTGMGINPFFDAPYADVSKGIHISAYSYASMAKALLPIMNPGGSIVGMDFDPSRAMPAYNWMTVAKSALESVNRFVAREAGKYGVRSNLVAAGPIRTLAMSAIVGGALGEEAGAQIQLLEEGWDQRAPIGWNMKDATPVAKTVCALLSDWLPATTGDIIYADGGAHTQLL
UniProt P06276, 29-602 limits assumed: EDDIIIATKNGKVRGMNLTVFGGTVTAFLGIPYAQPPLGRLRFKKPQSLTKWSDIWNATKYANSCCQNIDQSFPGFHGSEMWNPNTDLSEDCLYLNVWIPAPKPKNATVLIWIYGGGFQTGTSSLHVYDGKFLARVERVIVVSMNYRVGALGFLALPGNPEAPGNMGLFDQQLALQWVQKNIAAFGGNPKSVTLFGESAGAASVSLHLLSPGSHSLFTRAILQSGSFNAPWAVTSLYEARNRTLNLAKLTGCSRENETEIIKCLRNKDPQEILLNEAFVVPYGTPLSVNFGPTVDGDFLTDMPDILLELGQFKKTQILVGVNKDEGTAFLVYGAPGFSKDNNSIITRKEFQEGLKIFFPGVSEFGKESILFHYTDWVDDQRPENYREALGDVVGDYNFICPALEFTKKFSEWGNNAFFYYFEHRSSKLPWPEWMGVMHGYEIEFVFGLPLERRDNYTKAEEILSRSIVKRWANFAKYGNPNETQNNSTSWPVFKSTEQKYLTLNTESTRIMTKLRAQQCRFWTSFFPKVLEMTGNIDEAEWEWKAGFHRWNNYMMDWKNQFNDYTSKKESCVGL
UniProt P35869, whole entry, looked up: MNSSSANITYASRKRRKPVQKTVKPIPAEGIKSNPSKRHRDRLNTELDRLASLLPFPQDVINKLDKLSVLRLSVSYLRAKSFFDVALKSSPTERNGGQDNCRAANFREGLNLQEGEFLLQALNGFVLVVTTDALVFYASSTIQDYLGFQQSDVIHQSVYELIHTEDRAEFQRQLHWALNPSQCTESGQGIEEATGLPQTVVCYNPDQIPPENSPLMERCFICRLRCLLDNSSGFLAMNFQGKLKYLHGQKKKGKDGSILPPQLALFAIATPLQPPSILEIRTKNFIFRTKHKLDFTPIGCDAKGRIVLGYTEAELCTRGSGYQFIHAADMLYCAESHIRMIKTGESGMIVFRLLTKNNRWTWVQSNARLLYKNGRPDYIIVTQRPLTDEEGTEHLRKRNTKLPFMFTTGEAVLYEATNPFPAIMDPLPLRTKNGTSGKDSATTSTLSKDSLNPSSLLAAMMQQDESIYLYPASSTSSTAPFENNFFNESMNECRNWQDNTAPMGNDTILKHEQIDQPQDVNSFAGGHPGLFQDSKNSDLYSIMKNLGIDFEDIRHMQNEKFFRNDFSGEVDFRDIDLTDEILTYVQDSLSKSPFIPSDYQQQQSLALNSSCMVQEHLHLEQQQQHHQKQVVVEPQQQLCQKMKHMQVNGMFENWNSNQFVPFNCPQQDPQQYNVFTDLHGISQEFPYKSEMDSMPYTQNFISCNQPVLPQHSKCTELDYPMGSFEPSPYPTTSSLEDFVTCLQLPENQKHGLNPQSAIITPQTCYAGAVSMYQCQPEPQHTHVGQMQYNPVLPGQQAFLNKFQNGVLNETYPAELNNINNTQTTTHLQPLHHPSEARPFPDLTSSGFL
UniProt P21917, whole entry: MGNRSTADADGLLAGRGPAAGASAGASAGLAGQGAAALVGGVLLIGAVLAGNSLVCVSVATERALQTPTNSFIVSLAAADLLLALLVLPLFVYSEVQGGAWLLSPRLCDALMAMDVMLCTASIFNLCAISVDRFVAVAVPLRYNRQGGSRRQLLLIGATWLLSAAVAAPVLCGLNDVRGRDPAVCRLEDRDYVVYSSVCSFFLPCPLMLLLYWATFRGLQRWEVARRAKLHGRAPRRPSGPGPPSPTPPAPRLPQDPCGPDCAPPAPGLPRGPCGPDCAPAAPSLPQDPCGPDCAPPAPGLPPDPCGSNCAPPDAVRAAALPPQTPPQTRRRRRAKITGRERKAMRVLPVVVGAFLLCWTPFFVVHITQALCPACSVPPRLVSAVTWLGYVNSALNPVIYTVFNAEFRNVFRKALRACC
UniProt Q8T632, 1-509: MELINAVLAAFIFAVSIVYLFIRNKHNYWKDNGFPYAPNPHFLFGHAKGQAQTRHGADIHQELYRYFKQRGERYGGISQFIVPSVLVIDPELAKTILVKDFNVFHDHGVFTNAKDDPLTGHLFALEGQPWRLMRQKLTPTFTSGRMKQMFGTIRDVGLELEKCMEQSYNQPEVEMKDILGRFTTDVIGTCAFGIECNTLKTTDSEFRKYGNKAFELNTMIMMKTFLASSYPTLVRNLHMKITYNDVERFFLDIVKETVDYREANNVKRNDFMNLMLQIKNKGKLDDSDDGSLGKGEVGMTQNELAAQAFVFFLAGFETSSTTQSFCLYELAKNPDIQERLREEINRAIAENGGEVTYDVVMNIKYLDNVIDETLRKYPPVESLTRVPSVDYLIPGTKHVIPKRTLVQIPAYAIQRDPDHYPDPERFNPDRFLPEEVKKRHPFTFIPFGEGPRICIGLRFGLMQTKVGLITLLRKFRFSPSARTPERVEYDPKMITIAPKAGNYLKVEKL
UniProt P14416, whole entry: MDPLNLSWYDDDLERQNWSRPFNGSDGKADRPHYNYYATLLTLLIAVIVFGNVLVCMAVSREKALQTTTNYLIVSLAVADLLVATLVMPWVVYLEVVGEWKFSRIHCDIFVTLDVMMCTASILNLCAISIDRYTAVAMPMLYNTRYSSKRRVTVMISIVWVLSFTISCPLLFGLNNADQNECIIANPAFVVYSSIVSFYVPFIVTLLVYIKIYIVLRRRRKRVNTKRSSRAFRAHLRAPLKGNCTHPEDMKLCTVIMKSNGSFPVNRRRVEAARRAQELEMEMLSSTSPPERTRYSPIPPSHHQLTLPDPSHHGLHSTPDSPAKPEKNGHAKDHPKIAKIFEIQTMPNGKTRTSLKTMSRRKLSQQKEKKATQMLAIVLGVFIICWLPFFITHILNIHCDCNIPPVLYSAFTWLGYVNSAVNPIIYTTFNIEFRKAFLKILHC
UniProt P9WQ81, whole entry: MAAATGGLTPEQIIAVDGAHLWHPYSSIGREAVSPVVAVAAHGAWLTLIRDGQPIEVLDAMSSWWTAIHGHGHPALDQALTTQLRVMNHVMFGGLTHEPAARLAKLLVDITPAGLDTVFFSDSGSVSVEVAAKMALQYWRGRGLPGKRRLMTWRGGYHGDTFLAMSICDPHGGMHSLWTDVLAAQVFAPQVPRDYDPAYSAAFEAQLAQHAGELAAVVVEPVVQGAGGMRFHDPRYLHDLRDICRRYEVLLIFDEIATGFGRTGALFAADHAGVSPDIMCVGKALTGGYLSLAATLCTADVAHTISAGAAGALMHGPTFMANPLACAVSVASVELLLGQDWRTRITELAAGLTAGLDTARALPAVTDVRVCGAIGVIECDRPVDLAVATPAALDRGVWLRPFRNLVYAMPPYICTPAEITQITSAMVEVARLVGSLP
UniProt P09483, 31-630 limits assumed: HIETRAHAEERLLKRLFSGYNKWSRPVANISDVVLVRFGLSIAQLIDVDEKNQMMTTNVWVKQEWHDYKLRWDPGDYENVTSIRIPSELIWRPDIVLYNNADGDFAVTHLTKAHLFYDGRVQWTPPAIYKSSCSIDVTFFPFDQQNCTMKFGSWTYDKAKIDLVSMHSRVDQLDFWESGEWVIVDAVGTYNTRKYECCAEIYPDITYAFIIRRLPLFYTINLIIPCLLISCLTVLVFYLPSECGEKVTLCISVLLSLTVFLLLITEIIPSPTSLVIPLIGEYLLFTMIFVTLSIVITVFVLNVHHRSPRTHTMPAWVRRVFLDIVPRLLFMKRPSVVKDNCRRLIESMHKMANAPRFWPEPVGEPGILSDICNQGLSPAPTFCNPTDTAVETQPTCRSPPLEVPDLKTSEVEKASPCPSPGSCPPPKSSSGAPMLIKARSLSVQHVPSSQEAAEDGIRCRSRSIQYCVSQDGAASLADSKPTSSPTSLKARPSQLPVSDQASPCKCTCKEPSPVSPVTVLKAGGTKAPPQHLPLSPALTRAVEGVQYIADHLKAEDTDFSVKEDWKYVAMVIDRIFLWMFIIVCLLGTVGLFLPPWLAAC

Substance	target	assay	system	conditions	how to read	measurement	value
CO[C@]12CC[C@@]3(C[C@@H]1[C@](C)(O)c1ccccc1C)[C@H]1Cc4ccc(O)c5c4[C@@]3(CCN1CC1CC1)[C@H]2O5	Oprm1	G protein activation, agonist		10 µM	relative to: DAMGO	stimulation	17 ± 4%
CN(C)Cc1cc(N)ccc1O	ACHE	enzyme activity, inhibitor		1000 µM		inhibition	95%
CO[C@]12CC[C@@]3(C[C@@H]1[C@@](C)(O)C(C)(C)C)[C@H]1Cc4c(Cl)cc(O)c5c4[C@@]3(CCN1CC1CC1)[C@H]2O5	Nociceptin receptor (OPRL1, Homo sapiens, UniProt P41146)	antagonist	CHO	concentration not given		antagonist activity	inhibited
CO[C@]12CC[C@@]3(C[C@@H]1[C@](C)(O)c1ccccc1)[C@H]1Cc4ccc(O)c5c4[C@@]3(CCN1CC1CC1)[C@H]2O5	Oprm1	G protein activation, agonist		10 µM	relative to: DAMGO	stimulation	6 ± 1%
CC(=O)SCC[N+](C)(C)C	Butyrylcholinesterase	substrate				substrate inhibition constant (Kss)	336 ± 167 mM
Cc1cccc2c1ccc1cc(C(C)C)ccc12	AHR (Homo sapiens, UniProt P35869)	reporter gene, agonist	Huh7	30 µM, with: 0.125 mg/mL active microsomes	relative to: MeBIO 0.1 µM	fold change	10.1 and 11.2 and 10.2 and 10.8
CC(C)C[C@@H]1NC(=O)[C@H](CCC(=O)O)NC(=O)[C@@H]2CCCN2C(=O)[C@H](Cc2c[nH]cn2)NC(=O)[C@H](CCC(=O)O)NC(=O)[C@H](CC(C)C)NC(=O)[C@H](Cc2c[nH]cn2)NC(=O)[C@@H]2CSSC[C@H](NC(=O)CN)C(=O)N[C@@H](CSSC[C@@H](C(N)=O)NC1=O)C(=O)N[C@@H](CO)C(=O)N[C@@H](Cc1c[nH]cn1)C(=O)N1CCC[C@H]1C(=O)N[C@@H](C)C(=O)N2	Neuronal acetylcholine receptor; alpha3/beta2				relative to: IC50 α6/α3β2β3 over α3β2	selectivity ratio	14
C[N+](C)(C)CCCCCCCCCC[N+](C)(C)C	Butyrylcholinesterase				relative to: Ki over Ki butyrylcholinesterase (human)	selectivity ratio	100 fold
CO[C@]12CC[C@@]3(C[C@@H]1[C@](C)(O)c1cccc(C)c1)[C@H]1Cc4ccc(O)c5c4[C@@]3(CCN1CC1CC1)[C@H]2O5	Oprm1	G protein activation, agonist		10 µM	relative to: DAMGO	stimulation	33 ± 5%
methoxymethyl salvinorin B	OPRK1	G protein activation, agonist		concentration not given	relative to: dynorphin A	log intrinsic relative activity	0.45 ± 0.1
CNC(=O)Oc1ccc2c(c1)[C@]1(C)CCN(C)[C@@H]1N2C	Ace (Anopheles gambiae, UniProt Q869C3)	enzyme inhibition, inhibitor				ki	196000 M⁻¹ s⁻¹
CN(C(=O)Cc1ccc(Cl)c(Cl)c1)C1CCC2(CCCO2)CC1N1CCCC1 (stereo not drawn)	OPRK1	agonist		human receptor	relative to: larger over smaller RAi, vs dynorphin A	bias factor	1.8
CC1(C)CCC(Cc2cc(O)c(-c3ccccc3)c(=O)[nH]2)CC1	inhA	thermal shift				ΔTm	1.3 °C
CSCC[C@@H]1NC(=O)[C@H](CC(C)C)NC(=O)[C@H](CCCNC(=N)N)NC(=O)[C@H](CO)NC(=O)[C@@H]2CSSC[C@@H]3NC(=O)[C@H](CO)NC(=O)CNC(=O)[C@H]([C@@H](C)O)NC(=O)[C@H](CSSC[C@H](N)C(=O)N[C@@H](CCCCN)C(=O)NCC(=O)N[C@@H](CCCCN)C(=O)NCC(=O)N[C@@H](C)C(=O)N[C@@H](CCCCN)C(=O)N2)NC(=O)[C@H](CSSC[C@@H](C(N)=O)NC(=O)[C@H](CCCCN)NC(=O)CNC(=O)[C@H](CO)NC(=O)[C@H](CCCNC(=N)N)NC3=O)NC(=O)[C@H](CC(=O)O)NC(=O)[C@H](Cc2ccc(O)cc2)NC1=O	Voltage-dependent P/Q-type calcium channel subunit alpha-1A (Homo sapiens, UniProt O00555)	antagonist	HEK293	10 µM		inhibition	27%
O=C(O)c1ccccc1[As](=O)(O)O	SMPD1 (Homo sapiens, UniProt P17405)	enzyme activity		with: sphingomyelin substrate	relative to: pH 6.5 over pH 5.0	activity ratio	5.6 fold
Nc1nc2c(ncn2[C@@H]2O[C@H](COP(=O)(O)OP(=O)(O)OP(=O)(O)O)[C@@H](O)[C@H]2O)c(=O)[nH]1	Probable diguanylate cyclase DgcC (dgcC, Escherichia coli, UniProt P0AAP1)	diguanylate cyclase activity, substrate, radio-TLC	Escherichia coli, nanodiscs	pH 7.5, 30 °C		Km	2 µM
CC(=O)OCC[N+](C)(C)C	Muscarinic acetylcholine receptor (Xenopus laevis, UniProt A0A8J0U760)	binding, [3H]QNB competition	Xenopus laevis heart homogenate			Hill coefficient	0.49
O=C(O)c1cccc(O)c1O	2,3-dihydroxybenzoate-AMP ligase BasE (Acinetobacter baumannii, UniProt A0A0D5YGP3)	substrate		with: ATP 1 mM		Km	1.51 ± 0.3 µM
CN(C(=O)Cc1cccc2occc12)[C@H]1CC[C@@]2(CCCO2)C[C@@H]1N1CCCC1	OPRK1	agonist		human receptor	relative to: larger over smaller RAi, vs dynorphin A	bias factor	4.2
CO[C@]12CC[C@@]3(C[C@@H]1[C@](C)(O)c1ccc(F)cc1)[C@H]1Cc4ccc(O)c5c4[C@@]3(CCN1CC1CC1)[C@H]2O5	OPRK1	G-protein activation, agonist		10 µM	relative to: U-69593	stimulation	95 ± 4%

Substance	target	assay	system	conditions	how to read	measurement	value
CCC(=O)SCC[N+](C)(C)C	BCHE	substrate		pH 8.0, 22 °C		Km	17 ± 6 µM
CO[C@]12CC[C@@]3(C[C@@H]1[C@@](C)(O)c1ccncc1)[C@H]1Cc4ccc(O)c5c4[C@@]3(CCN1CC1CC1)[C@H]2O5	Oprm1	G protein activation, agonist		10 µM	relative to: DAMGO	stimulation	1 ± 3%
CCCC(=O)SCC[N+](C)(C)C	BCHE	substrate				substrate inhibition constant (Kss)	0.7 ± 0.1 mM
CC(C)[C@H]1CC[C@@H](N2CCC(n3c(CO)cc4ccccc43)CC2)CC1	DRD4 (Homo sapiens, UniProt P21917)	radioligand binding		10 µM		inhibition	86%
U-69593	OPRK1	β-arrestin2 recruitment, agonist, high content imaging	U2OS expressing human KOR	unit not given	relative to: reference agonist	Δlog(τ/KA)	0
CC(C)C[C@@H]1NC(=O)[C@H](CCC(=O)O)NC(=O)[C@@H]2CCCN2C(=O)[C@H](Cc2c[nH]cn2)NC(=O)[C@H](CC(N)=O)NC(=O)[C@H](CC(C)C)NC(=O)[C@H](Cc2c[nH]cn2)NC(=O)[C@@H]2CSSC[C@H](NC(=O)CN)C(=O)N[C@@H](CSSC[C@@H](C(N)=O)NC1=O)C(=O)N[C@@H](CO)C(=O)N[C@@H](Cc1c[nH]cn1)C(=O)N1CCC[C@H]1C(=O)N[C@@H](C)C(=O)N2	Neuronal acetylcholine receptor; alpha3/beta2				relative to: IC50 α6/α3β2β3 over α3β2	selectivity ratio	3
CCCCOP(=O)(OCCCC)OCCCC	PPARG (Homo sapiens, UniProt P37231)	reporter gene, agonist				threshold activation concentration	0.4 µM
CCOc1ccc2c(c1)Oc1cc(OCC)ccc1C21OC(=O)c2ccccc21	cyp6p3 (Anopheles gambiae, UniProt Q8T632)	substrate		single plasmid expression		Km	0.7 ± 0.1 µM
Cc1ccc2[nH]c(CNCCC[C@H]3CCOC3)cc(=O)c2c1	DRD2 (Homo sapiens, UniProt P14416)			10 µM		binding	inactive
CCN(CC)Cc1cccc(N)c1O	ACHE	enzyme activity, inhibitor		1000 µM		inhibition	35%
O=c1[nH]c(CC2CCCCC2)cc(O)c1-c1ccccc1	inhA	isothermal titration calorimetry		concentration not given, with: NADH		binding stoichiometry	1.04 ± 0.02
nociceptin	OPRD1 (Homo sapiens, UniProt P41143)	calcium mobilization, agonist	CHO with GαqG66Di5			pEC50	inactive
COc1ccc(CCCCC(=O)C(F)(F)C(F)(F)F)cc1	PLA2G6 (Homo sapiens, UniProt O60733)	enzyme activity, inhibitor, HPLC-MS/MS lipidomics			relative to: IC50 GIVA cPLA2 over IC50 PLA2G6	selectivity ratio	~154
C[S+](CC[C@H](N)C(=O)O)C[C@H]1O[C@@H](n2cnc3c(N)ncnc32)[C@H](O)[C@@H]1O (stereo partly drawn)	Adenosylmethionine-8-amino-7-oxononanoate aminotransferase (Mycobacterium tuberculosis, UniProt P9WQ81)	first half-reaction, substrate, PMP formation by absorbance		pH 8.5, room temperature, with: 100 µM PLP		Km	450 ± 200 µM
CN(C(=O)Cc1ccc(Cl)c(Cl)c1)[C@H](CN1CCCC1)c1ccccc1	OPRK1	agonist			relative to: U-50488 10 µM	Emax	98.5 ± 1.4%
CC(C)C[C@@H]1NC(=O)[C@H](CCC(=O)O)NC(=O)[C@@H]2CCCN2C(=O)[C@H](Cc2c[nH]cn2)NC(=O)[C@H](CCCCC(=O)O)NC(=O)[C@H](CC(C)C)NC(=O)[C@H](Cc2c[nH]cn2)NC(=O)[C@@H]2CSSC[C@H](NC(=O)CN)C(=O)N[C@@H](CSSC[C@@H](C(N)=O)NC1=O)C(=O)N[C@@H](CO)C(=O)N[C@@H](Cc1c[nH]cn1)C(=O)N1CCC[C@H]1C(=O)N[C@@H](C)C(=O)N2	Neuronal acetylcholine receptor; alpha4/beta2 (Rattus norvegicus, UniProt P09483+P12390)				relative to: IC50 α4β2 over α3β2	selectivity ratio	742
CO[C@]12CC[C@@]3(C[C@@H]1[C@](C)(O)c1cccs1)[C@H]1Cc4ccc(O)c5c4[C@@]3(CCN1CC1CC1)[C@H]2O5	Oprm1	G protein activation, agonist		10 µM	relative to: DAMGO	stimulation	0 ± 1%
ethoxymethyl salvinorin B	OPRK1	receptor internalization, agonist		concentration not given	relative to: dynorphin A	log intrinsic relative activity	0.68 ± 0.16
Cc1ncc(-c2cc(Cl)ccc2F)cc1-n1c(=O)n(CC(N)=O)c2ccccc21	OPRK1	binding, radioligand binding		10 µM		inhibition	13.5%

Excerpt of the above:
Substance	target	assay	system	conditions	how to read	measurement	value
CSCC[C@@H]1NC(=O)[C@H](CC(C)C)NC(=O)[C@H](CCCNC(=N)N)NC(=O)[C@H](CO)NC(=O)[C@@H]2CSSC[C@@H]3NC(=O)[C@H](CO)NC(=O)CNC(=O)[C@H]([C@@H](C)O)NC(=O)[C@H](CSSC[C@H](N)C(=O)N[C@@H](CCCCN)C(=O)NCC(=O)N[C@@H](CCCCN)C(=O)NCC(=O)N[C@@H](C)C(=O)N[C@@H](CCCCN)C(=O)N2)NC(=O)[C@H](CSSC[C@@H](C(N)=O)NC(=O)[C@H](CCCCN)NC(=O)CNC(=O)[C@H](CO)NC(=O)[C@H](CCCNC(=N)N)NC3=O)NC(=O)[C@H](CC(=O)O)NC(=O)[C@H](Cc2ccc(O)cc2)NC1=O	Voltage-dependent P/Q-type calcium channel subunit alpha-1A (Homo sapiens, UniProt O00555)	antagonist	HEK293	10 µM		inhibition	27%
Cc1ccc2[nH]c(CNCCC[C@H]3CCOC3)cc(=O)c2c1	DRD2 (Homo sapiens, UniProt P14416)			10 µM		binding	inactive
methoxymethyl salvinorin B	OPRK1	G protein activation, agonist		concentration not given	relative to: dynorphin A	log intrinsic relative activity	0.45 ± 0.1
CO[C@]12CC[C@@]3(C[C@@H]1[C@](C)(O)c1cccc(C)c1)[C@H]1Cc4ccc(O)c5c4[C@@]3(CCN1CC1CC1)[C@H]2O5	Oprm1	G protein activation, agonist		10 µM	relative to: DAMGO	stimulation	33 ± 5%
CN(C(=O)Cc1cccc2occc12)[C@H]1CC[C@@]2(CCCO2)C[C@@H]1N1CCCC1	OPRK1	agonist		human receptor	relative to: larger over smaller RAi, vs dynorphin A	bias factor	4.2
